Results gathered from unrelated publications.
Compare with care: the assays were run in different laboratories. ± gives the spread as reported.
had: had (Sphingobium sp. TCM1, UniProt A0A077JBW9)
Chain of UniProt O04197 (whole entry, looked up): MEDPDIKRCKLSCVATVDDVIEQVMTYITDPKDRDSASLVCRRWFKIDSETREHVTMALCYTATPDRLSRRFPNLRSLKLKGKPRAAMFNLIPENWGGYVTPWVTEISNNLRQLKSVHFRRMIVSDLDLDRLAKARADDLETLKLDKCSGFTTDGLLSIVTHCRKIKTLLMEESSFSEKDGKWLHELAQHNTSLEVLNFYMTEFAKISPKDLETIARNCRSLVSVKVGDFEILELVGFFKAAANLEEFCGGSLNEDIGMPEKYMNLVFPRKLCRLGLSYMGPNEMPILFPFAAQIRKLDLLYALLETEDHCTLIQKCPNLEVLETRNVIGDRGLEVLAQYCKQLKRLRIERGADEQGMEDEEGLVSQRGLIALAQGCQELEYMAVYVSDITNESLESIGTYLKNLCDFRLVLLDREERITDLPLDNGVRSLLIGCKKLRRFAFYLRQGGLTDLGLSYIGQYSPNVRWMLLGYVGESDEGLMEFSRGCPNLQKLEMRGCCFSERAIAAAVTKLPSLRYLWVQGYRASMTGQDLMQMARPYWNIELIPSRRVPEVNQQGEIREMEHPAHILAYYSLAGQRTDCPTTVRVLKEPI
Chain of UniProt Q9LMA8 (whole entry, looked up): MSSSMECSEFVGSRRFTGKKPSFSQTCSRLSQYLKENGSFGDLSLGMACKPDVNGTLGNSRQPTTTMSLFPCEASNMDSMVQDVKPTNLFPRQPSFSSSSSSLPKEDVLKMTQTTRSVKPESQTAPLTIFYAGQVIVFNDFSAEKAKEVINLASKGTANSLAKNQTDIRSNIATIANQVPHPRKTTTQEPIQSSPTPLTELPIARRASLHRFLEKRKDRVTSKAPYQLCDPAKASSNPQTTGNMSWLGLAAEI

CO[P@@](=O)(Oc1ccccc1)Oc1ccc([N+](=O)[O-])cc1  Km (had; p-nitrophenyl substrate hydrolysis, substrate): 61 ± 7 µM
CC(C)C[C@H](NC(=O)[C@H](CCCCN)NC(=O)[C@H](Cc1c[nH]c2ccccc12)NC(=O)[C@H](CCCCN)NC(=O)[C@@H]1CSSC[C@@H]2NC(=O)[C@H](CCC(=O)O)NC(=O)[C@H](CC(N)=O)NC(=O)[C@H](CCCCN)NC(=O)CNC(=O)[C@@H]3CCCN3C(=O)[C@H]([C@@H](C)O)NC(=O)[C@@H]3CSSC[C@H](NC(=O)[C@H](C(C)C)NC(=O)[C@H](CCCNC(=N)N)NC(=O)[C@H](CC(N)=O)NC(=O)[C@@H]4CCCN4C(=O)[C@H](CSSC[C@H](NC(=O)[C@H](C)N)C(=O)N[C@@H](CCCCN)C(=O)NCC(=O)N[C@@H](C(C)C)C(=O)N[C@@H](Cc4ccccc4)C(=O)N[C@@H](CC(=O)O)C(=O)N[C@@H](C)C(=O)N3)NC2=O)C(=O)N[C@@H](CO)C(=O)N[C@@H](CC(=O)O)C(=O)N[C@@H](CCCCN)C(=O)N[C@@H](Cc2c[nH]cn2)C(=O)N[C@@H](CCCCN)C(=O)N[C@@H](Cc2c[nH]c3ccccc23)C(=O)N1)C(N)=O  inhibition (Nav1.4 (rat); sodium current, inhibitor, two-electrode voltage clamp; Xenopus laevis oocytes; 1 µM, pH 7.4, holding potential -90 mV): 17.6 ± 1.9%
CC[C@H](C)[C@@H]1NC(=O)[C@H](CCCNC(=N)N)NC(=O)[C@H](CO)NC(=O)[C@H](CCC(=O)O)NC(=O)[C@H](CC(=O)O)NC(=O)CNC(=O)CNC(=O)[C@H]([C@@H](C)O)NC(=O)[C@H](Cc2ccccc2)NC(=O)[C@H](CO)NC(=O)[C@H]([C@@H](C)O)NC(=O)[C@H](C)NC(=O)[C@@H]2CSSC[C@@H](C(=O)N[C@@H](Cc3ccc(O)cc3)C(=O)N[C@@H](Cc3ccccc3)C(=O)N[C@H](C(=O)N[C@H](C(=O)NCC(=O)O)[C@@H](C)O)[C@@H](C)O)NC(=O)[C@H]([C@@H](C)O)NC(=O)[C@H](CSSC[C@H](NC(=O)[C@H](CCC(=O)O)NC(=O)[C@H](CO)NC(=O)[C@H](CCCCN)NC(=O)[C@H](Cc3ccc(O)cc3)NC(=O)[C@@H]3CCCN3C(=O)[C@H](Cc3ccccc3)NC(=O)[C@H](CCCCN)NC(=O)[C@H](CCCNC(=N)N)NC(=O)[C@H](CCCCN)NC(=O)[C@H](CCCCN)NC(=O)[C@H](Cc3ccc(O)cc3)NC(=O)[C@@H]3CCCN3C(=O)[C@@H](NC(=O)[C@H](CC(=O)O)NC(=O)[C@H](CCCCN)NC(=O)[C@H](CCCCN)NC(=O)[C@@H](NC(=O)[C@@H](NC(=O)[C@@H](N)CCC(=O)O)C(C)C)[C@@H](C)CC)[C@@H](C)O)C(=O)N[C@@H](CC(C)C)C(=O)N[C@@H](CCCCN)C(=O)N[C@@H](C)C(=O)N2)NC(=O)[C@H](CCCCN)NC(=O)[C@H](Cc2ccccc2)NC(=O)[C@H](Cc2ccccc2)NC(=O)CNC(=O)[C@@H]2CCCN2C(=O)[C@H](CCCCN)NC(=O)CNC(=O)[C@H](CCC(=O)O)NC(=O)[C@H](CCC(N)=O)NC1=O  spiking frequency (CA1 pyramidal neurons, mouse brain slices; patch clamp; 10 µM, together with: 40 pA depolarizing current): ~20 Hz
CC(C)Oc1ccc(-n2cnc3cc(/C=C\c4ccc(C(C)(C)O)cc4)ccc32)cc1  EC50 (Lassa virus; HeLa, clade IV Josiah): 0.26 ± 0.19 µM
CC[C@H](C)[C@H](NC(=O)[C@H](Cc1ccccc1)NC(=O)[C@H](CC(=O)O)NC(=O)[C@H](CCCCN)NC(=O)[C@H](C)NC(=O)[C@H](CCCCN)NC(=O)[C@H](CC(N)=O)NC(=O)[C@H](CC(C)C)NC(=O)[C@H](Cc1c[nH]c2ccccc12)NC(=O)[C@H](CCC(=O)O)NC(=O)[C@H](CCCCN)NC(=O)[C@@H](NC(=O)CNC(=O)[C@H](C)N)[C@@H](C)O)C(=O)N[C@@H](CCCCN)C(=O)N[C@@H](CCC(=O)O)C(=O)N[C@@H](CCCCN)C(=O)NCC(=O)N1CCC[C@H]1C(=O)NCC(=O)N[C@@H](CCSC)C(=O)N[C@@H](CC(C)C)C(=O)N[C@@H](CO)C(=O)N[C@@H](C)C(=O)N[C@@H](C)C(=O)N[C@@H](C)C(=O)N[C@@H](CC(N)=O)C(=O)N[C@@H](C)C(=O)N[C@@H](C)C(=O)N[C@@H](CC(C)C)C(=O)N[C@@H](CC(N)=O)C(=O)O  LD50 (Lucilia cuprina; thorax injection, 24 h): > 50 nmol/g
O=c1ccn(C2OC(F)(CO)C(O)C2O)c(=O)[nH]1 (stereo not drawn)  EC50 (Lassa virus; HeLa, clade III Nigeria-231): 8.43 ± 1.02 µM
CO[P@@](=O)(Oc1ccc([N+](=O)[O-])cc1)OC(C)C  Km (had; p-nitrophenyl substrate hydrolysis, substrate): 36 ± 6 µM
CCC1C=C(C(=O)NC2(C(=O)O)CC2CC)C2CCC(=O)C2C1 (stereo not drawn)  Kd (COI1/TIFY10A, with JAZ1 (Arabidopsis thaliana, UniProt O04197+Q9LMA8); binding, radioligand saturation binding; COI1-ASK1 complex; Arabidopsis thaliana proteins, together with: full-length JAZ1): 0.048 µM
CC[C@H](C)[C@H](NC(=O)[C@H](Cc1ccccc1)NC(=O)[C@H](CC(=O)O)NC(=O)[C@H](CCCCN)NC(=O)[C@H](C)NC(=O)[C@H](CCCCN)NC(=O)[C@H](CC(N)=O)NC(=O)[C@H](CC(C)C)NC(=O)[C@H](Cc1c[nH]c2ccccc12)NC(=O)[C@H](CCC(=O)O)NC(=O)[C@H](CCCCN)NC(=O)[C@H](Cc1c[nH]c2ccccc12)NC(=O)CNC(=O)[C@H](C)N)C(=O)N[C@@H](CCCCN)C(=O)N[C@@H](CCC(=O)O)C(=O)N[C@@H](CCCCN)C(=O)NCC(=O)N[C@@H](CC(C)C)C(=O)NCC(=O)N[C@@H](CCSC)C(=O)N[C@@H](CC(C)C)C(=O)N[C@@H](CO)C(=O)N[C@@H](C)C(=O)N[C@@H](C)C(=O)N[C@@H](C)C(=O)N[C@@H](CC(N)=O)C(=O)N[C@@H](C)C(=O)N[C@@H](C)C(=O)N[C@@H](CC(C)C)C(=O)N[C@@H](CC(N)=O)C(=O)O  LD50 (Lucilia cuprina; thorax injection, 24 h): 12.1 ± 3.3 nmol/g
[N-]=[N+]=N[C@]1(CO)O[C@@H](n2ccc(N)nc2=O)C(F)(F)[C@@H]1O  EC50 (Zaire ebolavirus; viral replication; Mayinga, recombinant): 0.3 ± 0.02 µM
CC[C@H](C)[C@H](NC(=O)[C@@H](NC(=O)[C@H](C)NC(=O)[C@@H]1CCCN1C(=O)[C@H](CO)NC(=O)[C@@H](N)CC(C)C)C(C)C)C(=O)N[C@@H](C)C(=O)N[C@@H](CO)C(=O)N[C@@H](CC(C)C)C(=O)N[C@H](C(=O)NCC(N)=O)C(C)C  EC50 (Drosophila melanogaster; calcium response, calcium imaging; class IV da neurons, ppk1.9-Gal4 UAS-GCaMP6f): 0.113 µM
CC(C)C[C@@H]1NC(=O)[C@H](CCCNC(=N)N)NC(=O)[C@@H]2CCCN2C(=O)[C@@H]2CSSC[C@H](NC(=O)CNC(=O)[C@@H]3CCCN3C(=O)[C@H](CCCCN)NC(=O)[C@H](CC(=O)O)NC(=O)[C@@H](NC(=O)CN)C(C)C)C(=O)N[C@@H](CCCNC(=N)N)C(=O)N[C@@H](Cc3ccc(O)cc3)C(=O)N[C@@H](CC(C)C)C(=O)N[C@@H](Cc3ccccc3)C(=O)NCC(=O)NCC(=O)N[C@H]3CSSC[C@H](NC(=O)CNC1=O)C(=O)N[C@@H](CCCCN)C(=O)NCC(=O)N[C@@H](CCCCN)C(=O)NCC(=O)N[C@@H](Cc1c[nH]cn1)C(=O)N[C@@H](CC(=O)O)C(=O)N[C@@H](Cc1ccc(O)cc1)C(=O)N[C@H](C(=O)N[C@@H](C)C(=O)N[C@@H](Cc1c[nH]c4ccccc14)C(=O)N[C@@H](CC(=O)O)C(=O)NCC(=O)N[C@H](C(=O)N[C@@H](Cc1ccccc1)C(=O)N[C@@H](CO)C(=O)N[C@@H](CC(=O)O)C(=O)O)[C@@H](C)O)CSSC[C@H](NC(=O)[C@H](CC(=O)O)NC(=O)[C@H](CC(=O)O)NC(=O)[C@H](CC(=O)O)NC(=O)[C@H](CO)NC(=O)[C@H](CCCCN)NC3=O)C(=O)N2  paw withdrawal temperature (adult mice; intraplantar, 60 pmol/paw): 46.9 ± 0.4 °C

Some of these lines once more:
O=c1ccn(C2OC(F)(CO)C(O)C2O)c(=O)[nH]1 (stereo not drawn)  EC50 (Lassa virus; HeLa, clade III Nigeria-231): 8.43 ± 1.02 µM
CCC1C=C(C(=O)NC2(C(=O)O)CC2CC)C2CCC(=O)C2C1 (stereo not drawn)  Kd (COI1/TIFY10A, with JAZ1 (Arabidopsis thaliana, UniProt O04197+Q9LMA8); binding, radioligand saturation binding; COI1-ASK1 complex; Arabidopsis thaliana proteins, together with: full-length JAZ1): 0.048 µM
